Published values gathered from unrelated publications.
Protocols differ between the studies behind these lines. “And” joins repeats or separate records; there may be more than shown.
CDK6 with cyclin D1: Cyclin-dependent kinase 6, with cyclin D1 (CDK6, Homo sapiens, UniProt Q00534)
Chain of UniProt Q00534 (whole entry, looked up): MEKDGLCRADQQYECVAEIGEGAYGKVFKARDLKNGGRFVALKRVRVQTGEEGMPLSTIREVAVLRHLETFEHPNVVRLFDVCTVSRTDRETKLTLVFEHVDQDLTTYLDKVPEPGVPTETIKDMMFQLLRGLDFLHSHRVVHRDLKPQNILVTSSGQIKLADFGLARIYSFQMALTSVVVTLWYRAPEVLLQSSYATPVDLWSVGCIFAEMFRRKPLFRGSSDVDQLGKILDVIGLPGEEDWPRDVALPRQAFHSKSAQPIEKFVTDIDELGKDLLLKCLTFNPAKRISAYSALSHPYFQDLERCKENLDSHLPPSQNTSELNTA
CDK6 with cyclin D3: Cyclin-dependent kinase 6, with cyclin D3 (CDK6, Homo sapiens, UniProt Q00534)
CDK6: Cyclin-dependent kinase 6 (CDK6, Homo sapiens, UniProt Q00534)

The remaining activity of `Nc1ncc(-c2cc(-c3cnn(CC(F)(F)F)c3)ncc2F)nc1C(=O)NC1CNCC(F)C1` (stereo not drawn) is reported as 110% (CDK6 with cyclin D1; enzyme activity; 1 µM; reference: DMSO control).
With `NC(=O)[C@@H](O)C[C@H]1CCc2sc3ncnc(O[C@H]4CC[C@H](N5CCOCC5)CC4)c3c21` the inhibition was 4% (CDK6 with cyclin D1; enzyme activity, inhibitor; 10 µM).
For `Cc1cccc(O[C@H]2CCC[C@@H](C(C)CNCc3ccncc3)C2)c1` (relative stereo), the inhibition was 5% (CDK6 with cyclin D3; enzyme activity, inhibitor; 10 µM).
`C=CC(=O)Nc1cccc(-c2cnc3[nH]cc(C(=O)NC(C)(C)C)c3n2)c1` has an inhibition of 14% (CDK6 with cyclin D3; enzyme activity, inhibitor; 0.1 µM).
`CS(=O)(=O)Nc1cccc(-c2csc3cnc(Nc4ccc(N5CCN(CCCCCOc6cccc7c6C(=O)N(C6CCC(=O)NC6=O)C7=O)CC5)cc4)nc23)c1` (stereo not drawn) has an inhibition of > 90% (CDK6; target engagement in cells; MOLT-4; 1 µM).
For `CCc1nnc(Nc2cnc([C@@H]3CCCN(C(=O)CCc4cccnc4)C3)cn2)s1`, “activity vs control” read 35% (CDK6; enzyme activity, inhibitor, ADP detection; 1 µM).
The inhibition of `NC(=O)C[C@H]1CCc2sc3ncnc(O[C@H]4CC[C@H](N5CCOCC5)CC4)c3c21` is reported as 6% (CDK6 with cyclin D3; enzyme activity, inhibitor; 10 µM).
`CN1C[C@@H](c2c[nH]c3cc(Br)ccc23)NC[C@@H]1c1c[nH]c2cc(Br)ccc12` gave a remaining activity of 98% (CDK6 with cyclin D1; enzyme activity, inhibitor; 10 µM).
The remaining activity of `COCC12C(=O)NC3C4(C(OC)CC1O)C1CC5(O)C(OC)C(O)C(OC(C)=O)(C1C5OC(=O)c1ccccc1)C3(O)C(OC)C24` (stereo not drawn) is reported as 102% and 90% (CDK6 with cyclin D1; kinase activity, inhibitor, ProQinase kinase profiling; 25 µM; reference: control).
For `O=C(O)CCC(=O)c1cccc(NS(=O)(=O)c2c[nH]c3ncccc23)c1`, the remaining activity was 93% (CDK6 with cyclin D3; kinase activity, radiometric; 10 µM).
The inhibition of `CCn1cc(C(=O)O)c(=O)c2c(N)c(F)c(NC3CCCCC3)cc21` is reported as 8.7% (Cyclin-dependent kinase 6, with cyclin D2 (CDK6, Homo sapiens, UniProt Q00534); kinase activity; 0.1 µM, together with: ATP at Km).
For `COc1ccc(NC(=O)Nc2ccc3c(c2)C(=O)N(C(C)CO)CC(C)C(CN(C)Cc2ccc4c(c2)OCO4)O3)cc1` (stereo not drawn), the remaining activity was 94% (CDK6 with cyclin D3; kinase activity, KinaseProfiler; 0.03 µM, species human; reference: control).
The inhibition of `CN1CC[C@@H](COc2cnc(C#N)cc2-c2ccn3nc(NC(=O)C4CC4)cc3c2)C1` is reported as 8% (CDK6 with cyclin D3; enzyme activity, inhibitor; 1 µM).
`Cc1cc(C)nc(Nc2ccc([C@@H]3CCCN(C(=O)/C=C/c4c(C)nn(C)c4C)C3)nc2)n1` — result for “activity vs control”: 18% (CDK6; enzyme activity, inhibitor, ADP detection; 1 µM).
With `Cc1nc2c(F)cc(-c3nc(Nc4ccc(CNC(=O)CCCCCCC(=O)NO)cc4)ncc3F)cc2n1C(C)C` the inhibition was 97% (CDK6 with cyclin D3; enzyme activity, inhibitor; 1 µM).
